Measurements collected from several papers.
Each line is one published result; not all experiments were run side by side. Values joined by “and” are separate records of one study, mostly repeats; a detail may differ. Numbers after ± are the reported error.
Sequence of UniProt Q99683 (whole entry, looked up): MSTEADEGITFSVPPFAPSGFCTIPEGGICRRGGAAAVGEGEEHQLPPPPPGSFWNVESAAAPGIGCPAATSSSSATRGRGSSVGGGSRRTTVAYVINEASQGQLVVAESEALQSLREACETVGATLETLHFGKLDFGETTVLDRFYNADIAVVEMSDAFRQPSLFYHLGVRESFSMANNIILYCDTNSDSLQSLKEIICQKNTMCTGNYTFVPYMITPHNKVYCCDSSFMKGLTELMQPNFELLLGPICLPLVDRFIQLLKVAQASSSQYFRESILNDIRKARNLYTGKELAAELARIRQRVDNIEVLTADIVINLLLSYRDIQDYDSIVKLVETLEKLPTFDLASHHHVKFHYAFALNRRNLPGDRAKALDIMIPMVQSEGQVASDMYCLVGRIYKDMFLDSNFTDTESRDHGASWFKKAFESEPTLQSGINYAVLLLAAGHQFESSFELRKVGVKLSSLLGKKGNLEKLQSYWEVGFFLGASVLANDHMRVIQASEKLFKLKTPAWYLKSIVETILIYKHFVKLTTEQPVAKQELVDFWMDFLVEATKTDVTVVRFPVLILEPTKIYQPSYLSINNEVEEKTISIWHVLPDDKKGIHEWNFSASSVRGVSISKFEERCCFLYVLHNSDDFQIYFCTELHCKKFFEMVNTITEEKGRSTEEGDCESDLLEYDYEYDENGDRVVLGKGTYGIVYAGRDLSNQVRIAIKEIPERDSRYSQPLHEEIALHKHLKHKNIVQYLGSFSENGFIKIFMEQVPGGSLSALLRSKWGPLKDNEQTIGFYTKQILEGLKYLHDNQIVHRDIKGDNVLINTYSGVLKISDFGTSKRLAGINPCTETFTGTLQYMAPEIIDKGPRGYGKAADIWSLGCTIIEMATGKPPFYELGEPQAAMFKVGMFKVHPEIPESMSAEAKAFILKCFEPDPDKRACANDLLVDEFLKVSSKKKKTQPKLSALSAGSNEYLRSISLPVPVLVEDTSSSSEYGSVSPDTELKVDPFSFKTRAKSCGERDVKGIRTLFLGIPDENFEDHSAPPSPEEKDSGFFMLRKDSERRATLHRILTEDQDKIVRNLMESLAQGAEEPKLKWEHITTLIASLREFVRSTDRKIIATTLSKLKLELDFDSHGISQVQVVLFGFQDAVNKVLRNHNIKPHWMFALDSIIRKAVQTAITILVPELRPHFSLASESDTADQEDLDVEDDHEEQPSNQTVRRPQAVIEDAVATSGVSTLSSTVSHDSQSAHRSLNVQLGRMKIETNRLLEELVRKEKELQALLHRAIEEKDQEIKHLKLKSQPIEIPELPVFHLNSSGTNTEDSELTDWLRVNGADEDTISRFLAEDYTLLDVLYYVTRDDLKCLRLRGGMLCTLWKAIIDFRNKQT

| SMILES | tested on | test | test system | setting | scale | endpoint | value |
| --- | --- | --- | --- | --- | --- | --- | --- |
| O=c1n(CCNCCOS(=O)(=O)c2ccccc2)c(=O)n(S(=O)(=O)c2ccccc2)c(=O)n1S(=O)(=O)c1ccccc1 | HUVEC | cell growth or viability, MTT |  | 200 µg/mL, 72 h |  | viability | 10.4% |
| O=C1NC2(CC2)COc2ncc(F)cc2[C@H]2COCCN2c2ccn3ncc1c3n2 |  |  | Sprague-Dawley rat, female, serum | oral, 5 mg/kg/day, end of recovery, 4-week subacute toxicity |  | serum urea | 2.99 ± 0.82 mmol/L |
| CC[C@H](C)[C@H](NC(=O)[C@H](C)NC(=O)[C@H](CCCCN)NC(=O)[C@H](CCCCN)NC(=O)[C@@H](N)CCCNC(=N)N)C(=O)N[C@@H](CCCCN)C(=O)N[C@@H](CC(C)C)C(=O)N[C@H](C(=O)N[C@@H](CCCCN)C(=O)N[C@@H](CCCCN)C(=O)N[C@@H](CC(C)C)C(=O)N[C@H](C(=O)N[C@@H](CCCCN)C(=O)N[C@@H](CCCCN)C(=O)N[C@@H](CC(C)C)C(=O)N[C@@H](CCCCN)C(=O)N[C@@H](CCCCN)C(=O)N[C@@H](C)C(=O)N[C@@H](CC(C)C)C(=O)N[C@@H](CCCCN)C(=O)O)C(C)C)C(C)C | HeLa | MTT |  | 64 mg/L | relative to: untreated | cell growth | 70.4% and 71.6% and 69.6% |
| CC[C@H](C)[C@H](NC(=O)[C@H](CCC(=O)O)NC(=O)[C@H](CCCNC(=N)N)NC(=O)[C@H](CC(C)C)NC(=O)[C@H](CCCCN)NC(=O)CNC(=O)[C@H](CC(C)C)NC(=O)[C@H](Cc1ccccc1)NC(=O)[C@H](CC(N)=O)NC(=O)[C@H](CCCCN)NC(=O)[C@H](C)NC(=O)[C@H](CC(C)C)NC(=O)CNC(=O)[C@H](CO)NC(=O)[C@@H](NC(=O)[C@@H](NC(=O)[C@H](CO)NC(=O)[C@H](CCCNC(=N)N)NC(=O)[C@H](Cc1c[nH]c2ccccc12)NC(=O)[C@H](Cc1ccccc1)NC(=O)[C@H](CCCNC(=N)N)NC(=O)CNC(=O)[C@H](Cc1ccccc1)NC(=O)CN)C(C)C)[C@@H](C)CC)C(=O)N[C@@H](CO)C(=O)N[C@@H](CCC(N)=O)C(=O)N[C@@H](CC(C)C)C(=O)N[C@@H](Cc1ccc(O)cc1)C(=O)O | HUVEC | cytotoxicity, MTT |  | 24 h, 37 °C |  | IC50 | 5.62 µM |
| CC[C@H](C)[C@H](NC(=O)[C@@H](NC(=O)[C@H](CCCCN)NC(=O)[C@H](CCC(N)=O)NC(=O)[C@@H](NC(=O)[C@H](Cc1c[nH]c2ccccc12)NC(=O)[C@H](CCCCN)NC(=O)[C@H](CCCCN)NC(=O)[C@H](CC(C)C)NC(=O)[C@H](CCCNC(=N)N)NC(=O)[C@H](CCCCN)NC(=O)[C@@H](N)C(C)C)[C@@H](C)CC)C(C)C)C(N)=O | sheep red blood cells | 10% haemolysis |  | 1 h, 37 °C |  | minimum haemolytic concentration | > 256 µM |
| CCCC[C@H](N)C(=O)N[C@H]1CSCc2ccc(cc2)-c2ccc(cc2)CSC[C@@H](C(=O)N[C@H](C(N)=O)[C@@H](C)O)NC(=O)[C@H](CCCCN)NC(=O)[C@H](CCCCN)NC(=O)[C@H](CCCCN)NC(=O)[C@H](Cc2ccc(O)cc2)NC(=O)[C@H](CC(N)=O)NC(=O)[C@H](CC(C)C)NC1=O | HeLa, HaloTag-GFP-Mito, stably expressing | cytosolic penetration, chloroalkane penetration |  | 50% HaloTag blocking |  | CP50 | ~2 µM |
| CC[C@H](C)[C@@H]1NC(=O)[C@H](C(C)C)NC(=O)[C@H](C(C)C)NC(=O)[C@H](CC(C)C)NC(=O)C[C@@H](C(=O)N[C@@H](Cc2c[nH]c3ccccc23)C(=O)N[C@@H](CC(N)=O)C(=O)N[C@@H](C)C(=O)N2CCC[C@H]2C(=O)NCC(=O)N[C@@H](Cc2c[nH]c3ccccc23)C(=O)N[C@@H](Cc2ccccc2)C(=O)O)NC(=O)[C@H](C)NC(=O)[C@H](CCC(N)=O)NC(=O)[C@H](C(C)C)NC1=O | SMMC-7721 |  |  | 10 µM |  | cytotoxicity | not toxic |
| COc1ccccc1-c1n[nH]c2nc(NC3CCN(C(=O)Cc4ccc(F)cc4F)CC3)ncc12 |  | bead binding, competition bead pull-down, measured: LINJ.28.3140 | Leishmania donovani extract | 10 µM | relative to: vehicle | relative abundance | 1.09 |
| CN(C)[C@H]1C[C@@]23CC[C@@]4(O2)C(=CC[C@]2(C)[C@@H](c5ccc6ccncc6c5)CC[C@H]24)C=C3[C@@H](O)[C@@H]1O | MAP3K5 (Homo sapiens, UniProt Q99683) | ATP probe labelling, inhibitor, KiNativ profiling |  | 1 µM |  | inhibition | 18.5% |
| COc1cc(/C=C/C(=O)O)ccc1O | HaCaT | MTT |  | 24 h, 10% FBS DMEM |  | subcytotoxic concentration | 50 µM |
| CCN(CCCCOc1ccc(CCC(=O)N2CCC(Cc3ccccc3)CC2)cc1OC)Cc1ccccc1 | Caco-2 monolayer |  |  | 20 µM, 120 min |  | efflux ratio | 1.45 |
| CNC(=O)C[C@H](Cc1ccccc1)NC(=O)[C@@H](Cc1ccc(Cl)cc1Cl)NC(=O)[C@H](N)Cc1ccccc1C#N | Huh-7-ACE2 | CellTiter-Glo |  | 0.0061 µM, 48 h, unit not given | relative to: DMSO | viability | 0.945 and 0.91 and 0.874 |
| CC(C)(C)C(=O)OCOP(=O)(OCOC(=O)C(C)(C)C)C1CCCN(O)C1=O (stereo not shown) | MCF7 |  |  |  |  | log TGI | -5.41 log M |

Some of these lines once more:
| SMILES | tested on | test | test system | setting | scale | endpoint | value |
| --- | --- | --- | --- | --- | --- | --- | --- |
| CN(C)[C@H]1C[C@@]23CC[C@@]4(O2)C(=CC[C@]2(C)[C@@H](c5ccc6ccncc6c5)CC[C@H]24)C=C3[C@@H](O)[C@@H]1O | MAP3K5 (Homo sapiens, UniProt Q99683) | ATP probe labelling, inhibitor, KiNativ profiling |  | 1 µM |  | inhibition | 18.5% |
